# Results gathered from unrelated publications.
# Protocols differ between the studies behind these lines. “And” joins repeats or separate records; there may be more than shown. Numbers after ± are the reported error.
SMILES,organism,test,test system,setting,how to read,quantity,result
c1ccc(CN2CCOCCOCCN(CCCCCCCCCCCCCCN3CCOCCOCCN(CCCCCCCCCCCCCCN4CCOCCOCCN(Cc5ccccc5)CCOCCOCC4)CCOCCOCC3)CCOCCOCC2)cc1,Klebsiella pneumoniae,"ampicillin antibacterial activity, potentiator, checkerboard",ATCC BAA-2146 beta-lactamase producing,"5 µM (half MIC), together with: ampicillin",relative to: ampicillin alone,fold enhancement,0 fold
FC(F)(F)c1cccc(CNc2nc(NC3CCN(Cc4ccccc4)CC3)c3nc[nH]c3n2)c1,Cryptococcus neoformans,"RNA-seq, item: PLC1 (CNAG_02867) mRNA",,"48 µg/mL, 3 h",relative to: untreated wild type,log2 fold change,0.574
CN(Cc1ccc(C2(C(F)(F)F)CCC2)cc1)Cc1cccc2ccccc12,Trichophyton mentagrophytes,"microbial growth, disc diffusion",ATCC18748,"0.002 µg/mL, 72 h",,inhibition zone,0 mm
Cc1cc(C(=O)Nc2nc3cccc(C)c3n2[C@H]2CCCCN(C(=O)/C=C/CN(C)C)C2)ccn1,Trypanosoma brucei brucei,"growth inhibition, CellTiter-Glo",Lister 427 bloodstream form,48 h,,EC50,65 nM and 72 nM
CC(=O)OC[C@H]1O[C@@H](Sc2sc(C(=O)c3ccc(Cl)cc3)c(N)c2-c2nc3ccccc3s2)[C@H](OC(C)=O)[C@@H](OC(C)=O)[C@@H]1OC(C)=O,herpes simplex virus 1,plaque reduction,,"non-toxic dose NG, mean over three titres",,viral reduction,13.3%
CC(C)C[C@H](NC(=O)[C@H](Cc1ccc(O)cc1)NC(=O)[C@@H]1CCCN1C(=O)[C@H](CCCNC(=N)N)NC(=O)[C@@H]1CCCN1C(=O)[C@H](CCCCN)NC(=O)[C@H](CC(=O)O)NC(=O)[C@@H]1CCCN1C(=O)[C@H](CCCNC(=N)N)NC(=O)C1(N)CCCCC1)C(=O)N1CCC[C@H]1C(=O)N[C@@H](CCCNC(=N)N)C(=O)N1CCC[C@H]1C(=O)N[C@@H](CCCNC(=N)N)C(=O)N1CCC[C@H]1C(=O)N1CCC[C@H]1C(=O)N[C@@H](CCCNC(=N)N)C(=O)N1CCC[C@H]1C(=O)N[C@H](C(=O)N[C@@H](CCCNC(=N)N)C(=O)N[C@@H](CSCc1ccccc1CSC[C@H](NC(=O)[C@H](CCCNC(=N)N)NC(=O)[C@@H](NC(=O)[C@@H]1CCCN1C(=O)[C@H](CCCNC(=N)N)NC(=O)[C@@H]1CCCN1C(=O)[C@@H]1CCCN1C(=O)[C@H](CCCNC(=N)N)NC(=O)[C@@H]1CCCN1C(=O)[C@H](CCCNC(=N)N)NC(=O)[C@@H]1CCCN1C(=O)[C@H](CC(C)C)NC(=O)[C@H](Cc1ccc(O)cc1)NC(=O)[C@@H]1CCCN1C(=O)[C@H](CCCNC(=N)N)NC(=O)[C@@H]1CCCN1C(=O)[C@H](CCCCN)NC(=O)[C@H](CC(=O)O)NC(=O)[C@@H]1CCCN1C(=O)[C@H](CCCNC(=N)N)NC(=O)C1(N)CCCCC1)C(C)C)C(=O)NN)C(=O)NN)C(C)C,Klebsiella pneumoniae,"membrane disruption, propidium iodide uptake",13883,"90 min, 37 °C",,MDC,18.1 ± 2 µg/mL
CC(C)(C)NCC(SS(=O)(=O)O)c1ccccc1 (stereo not drawn),Schistosoma mansoni,,infected Swiss Webster mice,"100 mg/kg single, dosed day 42, perfusion day 56",,mean male worms recovered,13.5 worms per mouse
C[N+](C)(C)CCO.O=C([O-])C(Cl)Cl,Solanum nigrum,herbicidal activity,,"15 mg/mL, 21 days, post-emergence greenhouse",,inhibition,0%
Nc1nc(-c2ccccc2)nc2[nH]nc(Nc3ccccc3F)c12,rhinovirus B48,viral cytopathic effect,HeLa,,,IC50,60 nM
c1ccc(CN2CCOCCOCCN(CCCCCCCCN3CCOCCOCCN(CCCCCCCCN4CCOCCOCCN(Cc5ccccc5)CCOCCOCC4)CCOCCOCC3)CCOCCOCC2)cc1,Klebsiella pneumoniae,tetracycline activity,ATCC BAA-2146,"2.5 µM, together with: tetracycline",relative to: tetracycline alone,fold enhancement,1 fold
Nc1nc(-c2ccccc2)nc2[nH]nc(Nc3ccccc3C(F)(F)F)c12,rhinovirus B48,viral cytopathic effect,HeLa,,,IC50,54600 nM
Cc1cccc2c1N(C(=O)n1ccnn1)CC2,Arabidopsis thaliana,,"wild type, seeds","10 µM, high ambient temperature",,germination rate,67.9% and 77.4% and 75.6% and 78.9% and 7.5% and 80.6%
Nc1nc(-c2ccccc2)nc2[nH]nc(Nc3ccc(Cl)cc3)c12,rhinovirus B48,viral cytopathic effect,HeLa,,,IC50,30 nM
Nc1c(C(=O)c2ccc(Cl)cc2)sc(S)c1-c1nc2ccccc2s1,herpes simplex virus 1,plaque reduction,,"non-toxic dose NG, mean over three titres",,viral reduction,20%
COC1C=COC2(C)Oc3c(C)c(O)c4c(c3C2=O)C2=NC3(CCN(CC(C)C)CC3)NC2=C(NC(=O)C(C)=CC=CC(C)C(O)C(C)C(O)C(C)C(OC(=O)Nc2cnccn2)C1C)C4=O (stereo not drawn),Mycobacteroides abscessus,bacterial growth,subsp. abscessus M9 clinical isolate,,,IC50,12 nM
C[C@@H]1C(=O)O[C@@H](C)/C=C/C=C\[C@@H](C)[C@@H]2C=C[C@@H]3C[C@@]4(C)O[C@H]4[C@@H](C)[C@H]3[C@@H]2C(=O)C(Cl)(Cl)C1=O,Staphylococcus aureus,,MSSA clinical isolate,PEN SXT TET resistant,,MIC,0.025 µg/mL
C=C(NC(=O)c1csc(-c2nc3c(cc2O)-c2nc(cs2)C(=O)NC(C(C)O)C(=O)NC(=C(C)OC)c2nc(cs2)C(=O)NC2c4nc(cs4)C(=O)NC(COC(=O)c4c5c6c(cccc6n4O)COC(=O)C(OC4CC(C)(O)C(N(C)C)C(C)O4)C2OC5)c2nc-3cs2)n1)C(N)=O (stereo not drawn),Staphylococcus epidermidis,,"methicillin-resistant, 10 isolates",serum 25%,,MIC50,0.0312 µg/mL
O=c1c(-c2nc3ccccc3s2)cc2c(n1NS(=O)(=O)c1ccc(Cl)cc1)CCCCCC2,herpes simplex virus 1,"viral replication, plaque",Vero,"non-toxic dose, mean of three titres",,plaque reduction,70%
CC[C@H](C)CCCCC(=O)N[C@@H](CCN)C(=O)N[C@H](C(=O)N[C@@H](CCN)C(=O)N[C@H]1CCNC(=O)[C@H]([C@@H](C)O)NC(=O)[C@H](CCN)NC(=O)[C@H](CCN)NC(=O)[C@H](CC(C)C)NC(=O)[C@@H](CC(C)C)NC(=O)[C@H](CCN)NC1=O)[C@@H](C)O,Klebsiella pneumoniae,,"BAA-2784, BALB/c mouse peritonitis, kidney",dose not given,,bacterial load,8.64 log CFU and 7.68 log CFU and 8.3 log CFU and 8.45 log CFU and 8.12 log CFU
C=C1C(=O)OC2C1CCC(C)(O)C13C=CC(C)(C21)C1(C3)C(=O)OC2C3C(C)C(=O)CC3C(=C)CC(OC(C)=O)C21 (stereo not drawn),Danio rerio,,,"concentration not given, HFD-fed larvae NAFLD model",,GSH level,increased
C=C[C@]1(C)C[C@@H](OC(=O)CSc2ccc(NC(=O)c3ccco3)cc2)[C@]2(C)[C@H](C)CC[C@]3(CCC(=O)[C@H]32)[C@@H](C)[C@@H]1O,Mycoplasma gallisepticum,"sigmoid Emax model, Cmax/MIC",infected chickens,,,Hill slope,5.09
Nc1nc(-c2ccccc2)nc2[nH]nc(Nc3ccccc3)c12,rhinovirus B48,viral cytopathic effect,HeLa,,,IC50,70 nM
CC(C)(O/N=C(\C(=O)N[C@@H]1C(=O)N(OS(=O)(=O)O)C1(C)C)c1nsc(N)n1)C(=O)O,Enterobacter aerogenes,agar dilution,"ATCC 13048, susceptible",,,MIC,> 64 µg/mL
Cc1cc(Cl)cc(S(C)=NC#N)c1NC(=O)c1cc(Br)nn1-c1ncccc1Cl (stereo not drawn),Plutella xylostella,,Raphanus sativus field plot,"50 ppm, 168 h, 10% wettable powder",,larval viability,13.8% and 8.6% and 9.7%
COC1C=COC2(C)Oc3c(C)c(O)c4c(c3C2=O)C2=NC3(CCN(CC(C)C)CC3)NC2=C(NC(=O)C(C)=CC=CC(C)C(O)C(C)C(O)C(C)C(OC(=O)Nc2cccnn2)C1C)C4=O (stereo not drawn),Mycobacteroides abscessus,,clinical isolates,90% isolates inhibited,,MIC90,400 µM
c1ccc(CN2CCOCCOCCN(CCCCCCCCCCN3CCOCCOCCN(CCCCCCCCCCN4CCOCCOCCN(Cc5ccccc5)CCOCCOCC4)CCOCCOCC3)CCOCCOCC2)cc1,Klebsiella pneumoniae,tetracycline activity,ATCC BAA-2146,"2.5 µM, together with: tetracycline",relative to: tetracycline alone,fold enhancement,1.1 fold
Cc1cccc(Nc2n[nH]c3nc(-c4ccc(F)cc4F)nc(N)c23)c1,rhinovirus B48,viral cytopathic effect,HeLa,,,IC50,2160 nM

# Repeated from above:
SMILES,organism,test,test system,setting,how to read,quantity,result
C=C(NC(=O)c1csc(-c2nc3c(cc2O)-c2nc(cs2)C(=O)NC(C(C)O)C(=O)NC(=C(C)OC)c2nc(cs2)C(=O)NC2c4nc(cs4)C(=O)NC(COC(=O)c4c5c6c(cccc6n4O)COC(=O)C(OC4CC(C)(O)C(N(C)C)C(C)O4)C2OC5)c2nc-3cs2)n1)C(N)=O (stereo not drawn),Staphylococcus epidermidis,,"methicillin-resistant, 10 isolates",serum 25%,,MIC50,0.0312 µg/mL
O=c1c(-c2nc3ccccc3s2)cc2c(n1NS(=O)(=O)c1ccc(Cl)cc1)CCCCCC2,herpes simplex virus 1,"viral replication, plaque",Vero,"non-toxic dose, mean of three titres",,plaque reduction,70%
CC[C@H](C)CCCCC(=O)N[C@@H](CCN)C(=O)N[C@H](C(=O)N[C@@H](CCN)C(=O)N[C@H]1CCNC(=O)[C@H]([C@@H](C)O)NC(=O)[C@H](CCN)NC(=O)[C@H](CCN)NC(=O)[C@H](CC(C)C)NC(=O)[C@@H](CC(C)C)NC(=O)[C@H](CCN)NC1=O)[C@@H](C)O,Klebsiella pneumoniae,,"BAA-2784, BALB/c mouse peritonitis, kidney",dose not given,,bacterial load,8.64 log CFU and 7.68 log CFU and 8.3 log CFU and 8.45 log CFU and 8.12 log CFU
C=C1C(=O)OC2C1CCC(C)(O)C13C=CC(C)(C21)C1(C3)C(=O)OC2C3C(C)C(=O)CC3C(=C)CC(OC(C)=O)C21 (stereo not drawn),Danio rerio,,,"concentration not given, HFD-fed larvae NAFLD model",,GSH level,increased
